Measured values of several laboratories.
Each line is one published result; not all experiments were run side by side. Numbers after ± are the reported error.
cyp121: Mycocyclosin synthase (cyp121, Mycobacterium tuberculosis, UniProt P9WPP7)
Chain of UniProt P9WPP7 (whole entry, looked up): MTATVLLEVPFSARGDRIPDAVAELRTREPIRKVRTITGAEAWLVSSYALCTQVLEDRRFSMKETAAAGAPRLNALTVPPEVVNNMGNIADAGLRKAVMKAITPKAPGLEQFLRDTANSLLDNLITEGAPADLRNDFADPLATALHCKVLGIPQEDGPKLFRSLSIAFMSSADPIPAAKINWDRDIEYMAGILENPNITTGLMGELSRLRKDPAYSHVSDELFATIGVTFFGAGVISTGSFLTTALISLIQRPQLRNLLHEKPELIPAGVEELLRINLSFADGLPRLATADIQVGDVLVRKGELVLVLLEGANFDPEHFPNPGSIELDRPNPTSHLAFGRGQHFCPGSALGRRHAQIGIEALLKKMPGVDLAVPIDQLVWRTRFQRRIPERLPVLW
gag capsid C-terminal domain: Gag polyprotein, capsid C-terminal domain (gag, UniProt P12493)
Spike glycoprotein: Spike glycoprotein (Severe acute respiratory syndrome coronavirus 2, UniProt P0DTC2)
Chain of UniProt P03314 (whole entry, looked up): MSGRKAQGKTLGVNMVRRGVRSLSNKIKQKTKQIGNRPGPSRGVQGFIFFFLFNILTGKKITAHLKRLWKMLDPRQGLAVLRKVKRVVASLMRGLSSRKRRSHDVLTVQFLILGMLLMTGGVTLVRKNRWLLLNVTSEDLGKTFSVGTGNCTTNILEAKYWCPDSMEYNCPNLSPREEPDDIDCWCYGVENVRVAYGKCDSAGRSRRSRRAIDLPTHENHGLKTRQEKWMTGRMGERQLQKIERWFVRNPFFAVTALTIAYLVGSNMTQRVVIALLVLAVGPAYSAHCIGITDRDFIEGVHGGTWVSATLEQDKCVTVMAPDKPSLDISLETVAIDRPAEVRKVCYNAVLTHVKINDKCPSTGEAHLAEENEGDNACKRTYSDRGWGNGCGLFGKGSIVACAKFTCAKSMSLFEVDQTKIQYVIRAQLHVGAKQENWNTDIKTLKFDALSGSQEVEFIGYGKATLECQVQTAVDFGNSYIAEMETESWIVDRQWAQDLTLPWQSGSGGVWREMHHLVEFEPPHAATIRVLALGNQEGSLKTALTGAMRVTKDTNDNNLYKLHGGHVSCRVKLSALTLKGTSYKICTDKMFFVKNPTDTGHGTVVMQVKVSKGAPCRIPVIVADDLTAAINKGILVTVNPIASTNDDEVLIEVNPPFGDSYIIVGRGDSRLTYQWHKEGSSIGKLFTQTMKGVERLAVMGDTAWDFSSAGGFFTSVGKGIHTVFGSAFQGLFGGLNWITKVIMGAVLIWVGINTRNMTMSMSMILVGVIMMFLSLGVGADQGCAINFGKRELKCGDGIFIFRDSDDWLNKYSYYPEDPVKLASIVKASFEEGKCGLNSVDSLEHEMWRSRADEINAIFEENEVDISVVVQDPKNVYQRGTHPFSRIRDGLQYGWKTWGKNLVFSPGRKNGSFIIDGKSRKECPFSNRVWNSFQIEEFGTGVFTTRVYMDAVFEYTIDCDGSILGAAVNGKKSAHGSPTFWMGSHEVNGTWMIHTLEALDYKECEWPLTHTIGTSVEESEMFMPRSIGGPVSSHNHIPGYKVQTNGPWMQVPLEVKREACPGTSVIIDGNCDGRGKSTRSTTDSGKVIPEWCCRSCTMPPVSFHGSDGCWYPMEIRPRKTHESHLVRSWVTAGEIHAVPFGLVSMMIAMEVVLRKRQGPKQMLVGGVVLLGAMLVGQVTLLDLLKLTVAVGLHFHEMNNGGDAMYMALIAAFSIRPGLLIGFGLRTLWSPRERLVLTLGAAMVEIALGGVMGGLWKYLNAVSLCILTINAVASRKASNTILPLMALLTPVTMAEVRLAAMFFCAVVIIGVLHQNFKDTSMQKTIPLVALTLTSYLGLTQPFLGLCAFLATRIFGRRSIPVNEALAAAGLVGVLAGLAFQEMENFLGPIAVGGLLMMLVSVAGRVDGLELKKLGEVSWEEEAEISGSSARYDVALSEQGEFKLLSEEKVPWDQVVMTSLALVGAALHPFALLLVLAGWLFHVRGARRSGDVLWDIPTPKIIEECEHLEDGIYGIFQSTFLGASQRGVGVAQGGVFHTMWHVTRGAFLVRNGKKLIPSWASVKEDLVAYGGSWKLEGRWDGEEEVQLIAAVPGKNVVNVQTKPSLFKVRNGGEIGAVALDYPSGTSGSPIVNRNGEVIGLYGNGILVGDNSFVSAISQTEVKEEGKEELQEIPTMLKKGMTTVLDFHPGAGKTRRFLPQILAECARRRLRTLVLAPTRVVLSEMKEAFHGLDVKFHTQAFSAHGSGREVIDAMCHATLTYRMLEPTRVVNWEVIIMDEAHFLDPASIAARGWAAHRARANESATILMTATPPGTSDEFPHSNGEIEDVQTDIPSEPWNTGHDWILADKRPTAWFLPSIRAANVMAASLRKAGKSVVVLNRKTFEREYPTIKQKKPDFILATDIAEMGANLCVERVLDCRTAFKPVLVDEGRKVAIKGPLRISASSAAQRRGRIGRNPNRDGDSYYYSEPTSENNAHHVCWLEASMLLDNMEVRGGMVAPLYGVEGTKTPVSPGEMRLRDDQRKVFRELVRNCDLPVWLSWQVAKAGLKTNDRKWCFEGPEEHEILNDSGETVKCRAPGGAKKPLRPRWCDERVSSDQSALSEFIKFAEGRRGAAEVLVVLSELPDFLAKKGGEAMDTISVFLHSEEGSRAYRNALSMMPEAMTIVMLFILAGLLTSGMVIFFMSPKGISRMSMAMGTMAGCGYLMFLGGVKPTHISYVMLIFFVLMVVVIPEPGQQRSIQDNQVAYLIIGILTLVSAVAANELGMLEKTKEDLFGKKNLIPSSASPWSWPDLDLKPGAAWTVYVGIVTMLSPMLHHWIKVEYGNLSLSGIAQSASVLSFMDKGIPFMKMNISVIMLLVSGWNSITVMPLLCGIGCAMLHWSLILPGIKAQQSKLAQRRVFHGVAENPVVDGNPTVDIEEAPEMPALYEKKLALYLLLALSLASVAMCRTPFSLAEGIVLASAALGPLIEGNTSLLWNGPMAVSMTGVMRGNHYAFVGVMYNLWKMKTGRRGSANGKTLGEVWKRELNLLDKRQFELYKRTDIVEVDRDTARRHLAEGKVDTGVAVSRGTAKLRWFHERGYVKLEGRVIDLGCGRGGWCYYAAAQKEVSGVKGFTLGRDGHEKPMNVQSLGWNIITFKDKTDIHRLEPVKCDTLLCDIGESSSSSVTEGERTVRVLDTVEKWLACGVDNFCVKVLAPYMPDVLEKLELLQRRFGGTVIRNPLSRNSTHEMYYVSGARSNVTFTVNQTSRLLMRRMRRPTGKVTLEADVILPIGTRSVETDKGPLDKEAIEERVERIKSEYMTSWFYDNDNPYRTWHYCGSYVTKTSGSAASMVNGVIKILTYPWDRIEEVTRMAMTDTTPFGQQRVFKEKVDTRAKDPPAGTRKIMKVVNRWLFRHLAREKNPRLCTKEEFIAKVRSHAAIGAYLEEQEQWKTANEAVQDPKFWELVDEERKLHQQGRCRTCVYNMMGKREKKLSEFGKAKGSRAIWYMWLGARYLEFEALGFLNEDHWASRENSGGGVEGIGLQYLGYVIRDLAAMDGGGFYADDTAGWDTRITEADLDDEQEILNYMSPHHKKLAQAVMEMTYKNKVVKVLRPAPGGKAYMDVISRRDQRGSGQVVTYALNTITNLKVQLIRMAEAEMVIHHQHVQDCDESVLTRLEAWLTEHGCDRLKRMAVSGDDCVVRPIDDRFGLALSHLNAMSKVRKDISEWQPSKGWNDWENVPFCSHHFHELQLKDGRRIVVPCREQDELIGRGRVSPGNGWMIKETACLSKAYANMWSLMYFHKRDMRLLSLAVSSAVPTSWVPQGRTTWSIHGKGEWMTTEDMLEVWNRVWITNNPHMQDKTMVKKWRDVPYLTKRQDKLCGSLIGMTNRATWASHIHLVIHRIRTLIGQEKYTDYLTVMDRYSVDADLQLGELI

SMILES | target | test | system | conditions | Kd
C=CC(c1ccc(-c2ccc3[nH]ccc3c2)cc1)n1ccnc1 (stereo not drawn) | cyp121 | binding |  |  | 3.5 ± 0.4 µM
CC[C@H](C)[C@H](N)C(=O)N[C@H](C(=O)N[C@@H](Cc1ccccc1)C(=O)N[C@H]1CSc2c(F)c(F)c(c(F)c2F)-c2c(F)c(F)c(c(F)c2F)SC[C@@H](C(=O)N[C@@H](Cc2ccc(O)cc2)C(=O)N[C@@H](Cc2ccc(O)cc2)C(=O)NCC(=O)N[C@@H](CCCCN)C(=O)N[C@@H](CCCCN)C(=O)N[C@@H](CCCCN)C(N)=O)NC(=O)[C@H](CC(C)C)NC(=O)[C@H](CC(C)C)NC(=O)[C@H](CC(=O)O)NC1=O)[C@@H](C)O | gag capsid C-terminal domain | binding, biolayer interferometry | PBS | pH 7.4, 30 °C, biotinylated peptide immobilised, with: C-CA 5 to 100 µM | > 100 µM
CC(C)=CCC[C@](C)(O[C@@H]1O[C@H](CO[C@@H]2O[C@H](CO)[C@@H](O)[C@H](O)[C@H]2O)[C@@H](O)[C@H](O)[C@H]1O)[C@H]1CC[C@]2(C)[C@@H]1[C@H](O)C[C@@H]1[C@@]3(C)CC[C@H](O[C@@H]4O[C@H](CO)[C@@H](O)[C@H](O)[C@H]4O)C(C)(C)[C@@H]3CC[C@]12C | Spike glycoprotein | binding, BLI |  |  | 117 µM
C=CC(c1ccc(-c2ccc(OC)c(C)c2)cc1)n1ccnc1 (stereo not drawn) | cyp121 | binding |  |  | 5.8 ± 0.5 µM
CC[C@H]1CN2CCc3cc(OC)c(OC)cc3[C@@H]2C[C@@H]1C[C@H]1NCCc2cc(O)c(OC)cc21 | Nucleoprotein (Severe acute respiratory syndrome coronavirus 2, UniProt P0DTC9) | binding, SPR |  |  | 53.8 µM
CC(C)=CCc1c(O)ccc(C(=O)/C=C/c2ccc(O)cc2)c1O | Spike glycoprotein | binding, biolayer interferometry |  |  | 8.8 µM
CC[C@H](C)[C@H](N)C(=O)N[C@H](C(=O)N[C@@H](Cc1ccccc1)C(=O)N[C@H]1CSc2ccc(c(C)c2)Oc2ccc(cc2C)SC[C@@H](C(=O)N[C@@H](Cc2ccc(O)cc2)C(=O)N[C@@H](Cc2ccc(O)cc2)C(=O)NCC(=O)N[C@@H](CCCCN)C(=O)N[C@@H](CCCCN)C(=O)N[C@@H](CCCCN)C(N)=O)NC(=O)[C@H](CC(C)C)NC(=O)[C@H](CC(C)C)NC(=O)[C@H](CC(=O)O)NC1=O)[C@@H](C)O | gag capsid C-terminal domain | binding, biolayer interferometry | PBS | pH 7.4, 30 °C, biotinylated peptide immobilised, with: C-CA 5 to 100 µM | > 100 µM
Nc1ncnc2c1ncn2[C@@H]1O[C@H](CN(CC[C@H](N)C(=O)O)Cc2cn(CCNC(=O)c3ccc4c(c3)C(=O)OC43c4ccc(O)cc4Oc4cc(O)ccc43)nn2)[C@@H](O)[C@H]1O | Genome polyprotein, NS5 methyltransferase domain (Yellow fever virus, UniProt P03314) | binding |  |  | 3 µM
CC(C)=CCC[C@]1(C)C=Cc2c(O)c3c(c(CC=C(C)C)c2O1)O[C@]12C(=C[C@@H]4C[C@H]1C(C)(C)O[C@@]2(C/C=C(/C)C(=O)O)C4=O)C3=O | Spike glycoprotein | binding, BLI |  |  | 27.2 µM
C=CC1=C(C)C2=Cc3c(C=C)c(C)c4[n]3[Fe]([Cl])[n]3c(c(C)c(CCC(=O)O)c3=CC3=NC(=C4)C(C)=C3CCC(=O)O)=CC1=N2 | HmoA |  |  |  | 5.81 ± 0.6 µM
COc1cc(O)c(CC=C(C)C)c2c1C(=O)CC(c1ccc(O)cc1)O2 (stereo not drawn) | Spike glycoprotein | binding, biolayer interferometry |  |  | 10.6 µM
CO[C@H]1/C=C/O[C@@]2(C)Oc3c(C)c(O)c4c(O)c(c(/C=N/N5CCN(C6CCCC6)CC5)c(O)c4c3C2=O)NC(=O)/C(C)=C\C=C\[C@H](C)[C@H](O)[C@@H](C)[C@@H](O)[C@@H](C)[C@H](OC(C)=O)[C@@H]1C | Genome polyprotein, NS5 RdRp domain (Yellow fever virus, UniProt P03314) |  |  |  | 7.24 µM

Some of these lines once more:
SMILES | target | test | system | conditions | Kd
COc1cc(O)c(CC=C(C)C)c2c1C(=O)CC(c1ccc(O)cc1)O2 (stereo not drawn) | Spike glycoprotein | binding, biolayer interferometry |  |  | 10.6 µM
